Measured values of several laboratories.
Each numbered part is a random draw from the data of one study; scales do not carry over between parts. Positions count from the first letter of the parent shown.

Block 1
Target: TAR DNA-binding protein 43, full length, His tag (TARDBP, Homo sapiens, UniProt Q13148, residues 1-414)
Method: RNA Bind-n-Seq
Form: RNA
Matrix: in vitro
Concentration: 20 nM
Setting: 6-mer, flanks averaged, single round
Together with: 150 mM LiCl
Baseline: input library
Direction: higher = stronger binding
`UCGGGU`: “6-mer enrichment (R)” 1.
For `AUGGGU`, “6-mer enrichment (R)” read 1.25.
Under “6-mer enrichment (R)”, `CAGAGU` is recorded as 0.929.
`UAAGUU`: “6-mer enrichment (R)” 0.975.
For `AAGCGG`, “6-mer enrichment (R)” read 0.953.
`GAACCC`: “6-mer enrichment (R)” 0.956.
`CGGACG`: “6-mer enrichment (R)” 1.02.
For `GAUGAA`, “6-mer enrichment (R)” read 0.992.
`AGAUGU` — result for “6-mer enrichment (R)”: 1.03.
Under “6-mer enrichment (R)”, `CGGUAU` is recorded as 0.978.
Under “6-mer enrichment (R)”, `UGCCAU` is recorded as 0.952.
`UGUACU`: “6-mer enrichment (R)” 0.919.
For `CCGCCG`, “6-mer enrichment (R)” read 0.94.
`GGAGGA`: “6-mer enrichment (R)” 1.15.

Block 2
Target: Ras GTPase-activating protein-binding protein 1, C-terminal RGG region (G3BP1, Homo sapiens, UniProt Q13283)
Chain of UniProt Q13283 (whole entry, looked up): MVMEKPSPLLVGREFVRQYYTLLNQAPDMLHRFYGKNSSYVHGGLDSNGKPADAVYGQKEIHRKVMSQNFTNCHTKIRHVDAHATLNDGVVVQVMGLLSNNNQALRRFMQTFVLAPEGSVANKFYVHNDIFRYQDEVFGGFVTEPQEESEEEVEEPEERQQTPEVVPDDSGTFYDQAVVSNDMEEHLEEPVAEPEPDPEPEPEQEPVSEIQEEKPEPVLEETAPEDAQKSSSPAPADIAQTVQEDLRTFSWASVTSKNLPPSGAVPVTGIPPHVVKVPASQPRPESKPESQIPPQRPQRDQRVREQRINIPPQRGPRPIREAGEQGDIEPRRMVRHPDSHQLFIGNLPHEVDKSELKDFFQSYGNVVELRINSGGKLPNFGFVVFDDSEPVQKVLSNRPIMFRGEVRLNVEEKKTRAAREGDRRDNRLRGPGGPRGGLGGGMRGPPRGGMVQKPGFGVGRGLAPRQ
Method: RNA Bind-n-Seq
Form: RNA
Matrix: in vitro
Concentration: 1 µM
Setting: whole 134-nt RNA, ends assumed
Together with: 150 mM KCl
Baseline: input library
Direction: higher = stronger binding
All sequences stand within: GGGAGUUCUACAGUCCGACGAUC … UGGAAUUCUCGGGUGUCAAGG
For `UCCUGUGCUACACAUCGUAUGUACCGAAUCAAACCCCCCCAAACCCCCAAAUUUUUAAAAAAGUAUUAUGUUACGCCGUUCGGAUCUGCA`, the log2 enrichment was -0.475.
`AGUCCUGUGCUACACAUCGUAUGUACCGAAUCGGAAAAAAAGGUUUUUGGAAAAAGGAAAGUAUUAUGUUACGCCGUUCGGAUCUGCACU` gave a log2 enrichment of -2.33.
The log2 enrichment of `UGUGCUACACAUCGUAUGUACCGAAUCGGGGCCCCCCCGGCCCCCCCGGGGCCCCCCCGGGGAAAGUAUUAUGUUACGCCGUUCGGAUCU` is reported as -2.33.
`CAAGUCCUGUGCUACACAUCGUAUGUACCGAAUCGGAAAAAGGAGGAAAAAAAGGAAAGUAUUAUGUUACGCCGUUCGGAUCUGCACUUC` gave a log2 enrichment of -1.75.
`UCCUGUGCUACACAUCGUAUGUACCGAAUCGGGCCCCCGGGGCCCCCGGGGCCCCCGGGGAAAGUAUUAUGUUACGCCGUUCGGAUCUGC` gave a log2 enrichment of -1.63.
For `UUGGACUAUGGAUCAGGUACUGUGCUCAGCAUCAGAAAAUGGGAUGACAAUGAACAGAGUAACAGGACUAUAUUUCUGAAAAAGGAUGAA`, the log2 enrichment was -1.01.
The log2 enrichment of `UUAAGUUGAAGGAGCGCUACCGCAACGUGCUGGACACCAUGUUCGAGCUGCUGCCCCGGAUGGCCAGGUACUGCCAGCCCCCACCCUGGC` is reported as -0.955.

Block 3
Target: Centromere-binding protein 1, full length, N-terminal tag (CBF1, Saccharomyces cerevisiae, UniProt P17106, residues 1-351)
Chain of UniProt P17106 (whole entry, looked up): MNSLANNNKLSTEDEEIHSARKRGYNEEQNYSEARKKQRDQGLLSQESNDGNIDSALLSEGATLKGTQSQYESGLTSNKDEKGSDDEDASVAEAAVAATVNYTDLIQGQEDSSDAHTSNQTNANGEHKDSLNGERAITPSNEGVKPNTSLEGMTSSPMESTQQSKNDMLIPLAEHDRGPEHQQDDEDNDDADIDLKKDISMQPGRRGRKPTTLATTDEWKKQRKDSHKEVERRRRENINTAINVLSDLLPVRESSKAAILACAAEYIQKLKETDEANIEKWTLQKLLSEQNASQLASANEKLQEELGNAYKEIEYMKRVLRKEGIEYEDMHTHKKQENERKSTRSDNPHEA
Method: protein-binding microarray
Form: double-stranded DNA, one strand shown
Matrix: in vitro
Concentration: 0.8 µM
Setting: whole 60-bp probe, no competitor
Direction: higher = stronger binding
All sequences stand within: … GTCTTGATTCGCTTGACGCTGCTG
The fluorescence intensity of `GAAAAAAAGTTTAATCACGTTCCCGCTTCTTTTTAG` is reported as 1500 a.u.
For `GAAAACAAGATAGAGCACGTTGGGTCAAATTCTTAG`, the fluorescence intensity was 605 a.u.
With `CTATCCGTGTTTCATCACCCACATTATAGTACATTC` the fluorescence intensity was 533 a.u.
`CTAACTTTGCGGGATCACCCGCATAAAGTCGTCTTC` gave a fluorescence intensity of 494 a.u.
The fluorescence intensity of `GAATTGAAAATCGTACACGTTATATCAACGCTATAG` is reported as 566 a.u.
`CTAAAAATATGTCAGACCACCACCAATGTTAACTTC` has a fluorescence intensity of 690 a.u.
The fluorescence intensity of `CTAAAAATAATCTCTCACGTTATACGCAATAAATTC` is reported as 843 a.u.
The fluorescence intensity of `CTATAATCTAAGCGCATCACCAACATTTTCTGGTTC` is reported as 513 a.u.
`CTAGCCATTTCGCTTCTGATGCTTTAGCTGATGTTC` has a fluorescence intensity of 483 a.u.
`CTACAGACCTGTCGTCACCATAGCAACCAAAAATTC` has a fluorescence intensity of 527 a.u.
With `GAAAGGGAAAGTACACGTGAAATTTTAAACTACTAG` the fluorescence intensity was 2620 a.u.
With `CTATAATAAAAACAGCATCAGAGCTTTCCACGTTTC` the fluorescence intensity was 458 a.u.

Block 4
Target: Histone acetyltransferase KAT6A, both winged helices, GST fusion (KAT6A, Homo sapiens, UniProt Q92794, residues 1-181)
Method: protein binding microarray
Form: double-stranded DNA, one strand shown
Matrix: in vitro
Concentration: not given
Setting: 8-mer, flanks averaged, mean of 2 arrays, mostly near background
Baseline: not given
Direction: higher = stronger binding
Residues (chain): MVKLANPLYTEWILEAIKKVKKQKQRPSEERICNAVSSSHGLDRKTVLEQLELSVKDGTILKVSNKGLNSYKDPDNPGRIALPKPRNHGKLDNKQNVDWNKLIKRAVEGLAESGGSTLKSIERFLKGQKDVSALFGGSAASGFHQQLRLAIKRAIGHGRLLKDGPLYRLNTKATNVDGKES
For `CAGAGGGG`, the E-score was -0.288.
The E-score of `AACTCACT` is reported as -0.172.
`ACACTTCG` gave an E-score of -0.157.
The E-score of `CATGAGTC` is reported as -0.0495.
`ATAGGTTA` has an E-score of -0.0766.
For `AACTGCCC`, the E-score was -0.101.
The E-score of `ATTGTAGG` is reported as -0.163.
`GACTTTAA` gave an E-score of -0.197.
With `AAAGGTGG` the E-score was -0.0789.
For `AAGGGCTG`, the E-score was -0.142.
The E-score of `ATTGTGAC` is reported as -0.087.
`ACGCAAGG` has an E-score of -0.113.
`TAGTAGCA` has an E-score of 0.0119.
For `CGACTCTA`, the E-score was -0.0627.
The E-score of `ATCCTTCC` is reported as -0.158.
For `AGCTCAGC`, the E-score was -0.131.
For `ACCTATCT`, the E-score was -0.164.
The E-score of `GCTACGCA` is reported as 0.168.
`TATAGAGA` has an E-score of -0.115.
With `AAAGAGAT` the E-score was -0.0613.
`AACCGAAG` has an E-score of -0.00543.
With `CGTAGGAA` the E-score was -0.0117.
The E-score of `GTGAGCAA` is reported as -0.14.
`GGGCGACA` gave an E-score of 0.182.
The E-score of `AAATCGGA` is reported as -0.0166.

Block 5
Target: CCNE1, cyclin fold, Cln2 fusion (human)
Method: yeast growth competition, sequencing
Matrix: yeast
Setting: weak parent motif
Baseline: not given
Direction: higher = stronger binding
Starting sequence: WEE1 docking peptide (human); HKTFRKLRLFDTP
`HKTQRKLRLFDTP [F4Q]`: “normalised enrichment score” 0.0535.
`HKTFRKLKLFDTP [R8K]` — result for “normalised enrichment score”: 1.13.
`HFTFRKLRLFDTP [K2F]` — result for “normalised enrichment score”: 0.699.
Under “normalised enrichment score”, `HKTFRKLRLFDHP [T12H]` is recorded as 1.48.
`HSTFRKLRLFDTP [K2S]` — result for “normalised enrichment score”: 0.3.
Under “normalised enrichment score”, `HKTFRKLRLFDTK [P13K]` is recorded as 0.195.
Under “normalised enrichment score”, `HKTFRKLRLFPTP [D11P]` is recorded as 0.796.
For `HKTFRQLRLFDTP [K6Q]`, “normalised enrichment score” read 0.374.
`HKTFRKLRLFATP [D11A]` — result for “normalised enrichment score”: 0.324.
For `HKTFRFLRLFDTP [K6F]`, “normalised enrichment score” read -0.977.
`HKTFFKLRLFDTP [R5F]`: “normalised enrichment score” 0.488.
`EKTFRKLRLFDTP [H1E]` — result for “normalised enrichment score”: 0.408.
`HKTFRKMRLFDTP [L7M]`: “normalised enrichment score” -0.665.

Block 6
Target: PABPC1L2, full length, GST fusion (mouse, UniProt A0ABA7IW68)
Method: RNAcompete
Form: RNA
Matrix: in vitro
Concentration: 20 nM
Setting: 7-mer, probes averaged, single round
Baseline: mean of 7-mers
Direction: higher = stronger binding
Construct (chain): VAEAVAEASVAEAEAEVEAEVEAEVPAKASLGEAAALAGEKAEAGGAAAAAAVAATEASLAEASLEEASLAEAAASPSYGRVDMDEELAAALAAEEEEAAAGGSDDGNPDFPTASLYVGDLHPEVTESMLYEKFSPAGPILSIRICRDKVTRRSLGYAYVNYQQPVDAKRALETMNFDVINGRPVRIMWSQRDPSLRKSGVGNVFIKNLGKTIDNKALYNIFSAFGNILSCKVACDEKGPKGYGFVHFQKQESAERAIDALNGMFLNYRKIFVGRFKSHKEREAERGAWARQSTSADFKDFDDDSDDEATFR
With `AUUUUCG` the 7-mer Z-score was -0.335.
`UACUGCC` gave a 7-mer Z-score of -0.492.
`GCAUAGG` has a 7-mer Z-score of -0.0228.
With `AUCUAUA` the 7-mer Z-score was 0.0189.
`CCUUCCG` gave a 7-mer Z-score of -0.393.
For `CCACGGG`, the 7-mer Z-score was -0.0409.
`GGUGGUU` gave a 7-mer Z-score of -0.193.
`CUGUAGC` has a 7-mer Z-score of -0.155.
`UGACGUU` has a 7-mer Z-score of -0.347.
The 7-mer Z-score of `UUAAAUA` is reported as 1.15.
With `AUCUUCG` the 7-mer Z-score was -0.278.
`AGCUAUU` gave a 7-mer Z-score of -0.119.
With `UGAGUCA` the 7-mer Z-score was -0.179.
With `UGGGUGU` the 7-mer Z-score was -0.0482.
`UGCGUAU` has a 7-mer Z-score of -0.306.
`GGUUAGC` gave a 7-mer Z-score of -0.0935.
The 7-mer Z-score of `AUACUAG` is reported as -0.135.
`AUGGUCC` has a 7-mer Z-score of -0.0246.

Block 7
Target: ABI1, truncated, D143A, DHFR fusion (Arabidopsis thaliana)
Method: DHFR PCA, deep sequencing
Matrix: yeast
Setting: methotrexate growth selection, single substitutions
Together with: (+)-ABA 1.4 µM
Baseline: wild-type fitted maximum
Direction: higher = stronger binding
Starting sequence: PYL1, truncated, DHFR fusion (Arabidopsis thaliana); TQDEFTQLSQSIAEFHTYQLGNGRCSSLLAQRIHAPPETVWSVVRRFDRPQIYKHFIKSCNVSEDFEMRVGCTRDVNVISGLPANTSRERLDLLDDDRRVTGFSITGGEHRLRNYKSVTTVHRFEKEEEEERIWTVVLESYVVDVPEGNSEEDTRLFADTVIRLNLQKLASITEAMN; partner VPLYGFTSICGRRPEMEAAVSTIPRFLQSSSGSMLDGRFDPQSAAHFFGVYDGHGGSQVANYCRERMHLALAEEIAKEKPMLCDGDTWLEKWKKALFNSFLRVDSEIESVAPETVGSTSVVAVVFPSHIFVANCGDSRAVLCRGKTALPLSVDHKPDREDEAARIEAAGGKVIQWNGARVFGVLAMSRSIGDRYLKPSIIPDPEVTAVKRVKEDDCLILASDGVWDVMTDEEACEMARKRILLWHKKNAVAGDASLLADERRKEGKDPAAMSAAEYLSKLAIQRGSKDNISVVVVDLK
`T6G`: “relative binding score” 68%.
`V143L`: “relative binding score” -12.4%.
`L8N` — result for “relative binding score”: -30.8%.
`E151C` — result for “relative binding score”: 47.5%.
Under “relative binding score”, `S63M` is recorded as 27.1%.
`D95H` — result for “relative binding score”: 2.8%.
`T17R`: “relative binding score” 5.67%.
`H110A`: “relative binding score” 16%.
Under “relative binding score”, `D96L` is recorded as -2.03%.
`D95F`: “relative binding score” -11.2%.
For `D65L`, “relative binding score” read 11.3%.
For `T1D`, “relative binding score” read 57.1%.
Under “relative binding score”, `I57E` is recorded as -23.9%.
`F5E` — result for “relative binding score”: 29.7%.

Some of these lines once more (block 6):
For `CCACGGG`, the 7-mer Z-score was -0.0409.
`GGUGGUU` gave a 7-mer Z-score of -0.193.
`CUGUAGC` has a 7-mer Z-score of -0.155.
`UGACGUU` has a 7-mer Z-score of -0.347.
The 7-mer Z-score of `UUAAAUA` is reported as 1.15.
With `AUCUUCG` the 7-mer Z-score was -0.278.
`AGCUAUU` gave a 7-mer Z-score of -0.119.
With `UGAGUCA` the 7-mer Z-score was -0.179.
With `UGGGUGU` the 7-mer Z-score was -0.0482.
